Assay results of several laboratories.
Every numbered part comes from another study and shows a few of its results, in no order.

Sample 1 — method: protein binding microarray; form: double-stranded DNA, one strand shown; medium: in vitro; concentration: not given; relative to: not given; direction: higher = stronger binding
Target: Histone acetyltransferase KAT6A, both winged helices, GST fusion (KAT6A, Homo sapiens, UniProt Q92794, residues 1-181)
Setting: 8-mer, flanks averaged, mean of 2 arrays, mostly near background
Residues (chain): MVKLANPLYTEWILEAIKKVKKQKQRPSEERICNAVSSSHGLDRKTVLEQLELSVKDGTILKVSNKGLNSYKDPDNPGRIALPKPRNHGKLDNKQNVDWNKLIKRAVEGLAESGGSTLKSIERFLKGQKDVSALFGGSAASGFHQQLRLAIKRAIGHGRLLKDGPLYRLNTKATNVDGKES
`GGCTTCGA` has an E-score of 0.0448.
The E-score of `ATACCGGC` is reported as 0.307.
`ATGTCATG` has an E-score of 0.0154.
With `CAGTTACG` the E-score was 0.145.
The E-score of `CGGACACC` is reported as 0.16.
`GAGCACTA` has an E-score of -0.0275.
The E-score of `GGTTCCCA` is reported as -0.00658.
`CAGCTTGG` gave an E-score of -0.289.
For `CGCCTAAC`, the E-score was 0.143.
With `CATCCCTA` the E-score was -0.141.
The E-score of `ATGGTGTC` is reported as -0.148.
With `CCCATCCA` the E-score was -0.159.
The E-score of `ATCTTAGA` is reported as -0.00387.
With `AGAGAAGA` the E-score was -0.127.
The E-score of `GCAGTGGA` is reported as 0.00539.
The E-score of `ATCCTGTG` is reported as -0.0491.
`AACTAGGC` gave an E-score of -0.0474.
The E-score of `GTCTTCGA` is reported as 0.127.
`AGGTGAGC` gave an E-score of -0.0621.
For `TTCGTAAA`, the E-score was -0.034.
`AGAAGAAC` gave an E-score of -0.0789.
With `CCGGCAAG` the E-score was 0.251.
For `CACTGTTA`, the E-score was -0.127.
`AGTCGCAG` has an E-score of 0.0458.
The E-score of `ATTGCGCA` is reported as 0.266.

Sample 2 — method: RNA Bind-n-Seq; form: RNA; medium: in vitro; concentration: 20 nM; setting: 6-mer, flanks averaged, single round; with: 150 mM LiCl; relative to: input library; direction: higher = stronger binding
Target: TAR DNA-binding protein 43, full length, His tag (TARDBP, Homo sapiens, UniProt Q13148, residues 1-414)
`CGUCCA` — result for “6-mer enrichment (R)”: 0.873.
`AUGUUG`: “6-mer enrichment (R)” 1.27.
`GCAAGG` — result for “6-mer enrichment (R)”: 1.02.
`ACCCGC` — result for “6-mer enrichment (R)”: 0.966.
For `GCCCGU`, “6-mer enrichment (R)” read 0.971.
For `AACAUA`, “6-mer enrichment (R)” read 0.861.
For `CUUUCC`, “6-mer enrichment (R)” read 0.956.
`UUCUGU`: “6-mer enrichment (R)” 1.04.
For `CUUACU`, “6-mer enrichment (R)” read 0.903.
For `CAGGCG`, “6-mer enrichment (R)” read 0.967.
For `UAUUUU`, “6-mer enrichment (R)” read 1.38.
For `AUCCUC`, “6-mer enrichment (R)” read 0.849.
For `CUGAUU`, “6-mer enrichment (R)” read 0.869.
For `UGUACA`, “6-mer enrichment (R)” read 0.914.
`UUAUCA` — result for “6-mer enrichment (R)”: 0.918.
`CGGGAC`: “6-mer enrichment (R)” 0.974.
For `UAACGG`, “6-mer enrichment (R)” read 0.873.
For `AUUUUC`, “6-mer enrichment (R)” read 1.11.
Under “6-mer enrichment (R)”, `CAUGGA` is recorded as 0.915.
For `AAGAUA`, “6-mer enrichment (R)” read 0.817.
Under “6-mer enrichment (R)”, `UACCGG` is recorded as 0.874.
For `UUCAAA`, “6-mer enrichment (R)” read 0.869.
For `UCCUGA`, “6-mer enrichment (R)” read 0.846.

Sample 3 — method: aptamer microarray, sandwich; form: DNA with 2'F-ANA; medium: in vitro; concentration: 200 nM; with: Cy3 exosite-II aptamer, 400 nM; direction: higher = stronger binding; strand: GGTTGGTGTGGTTGG
Target: Prothrombin, mature alpha-thrombin (F2, Homo sapiens, UniProt P00734)
Setting: whole 15-mer aptamer, many near background
Under “mean fluorescence intensity”, `2'F-ANA at 1 3 4 7 8 11 14 15` is recorded as 79.3 a.u.
`2'F-ANA at 2 4 8 11 14 15` — result for “mean fluorescence intensity”: 97.7 a.u.
`2'F-ANA at 1 2 3 4 6 9 12 15` — result for “mean fluorescence intensity”: 275 a.u.
`2'F-ANA at 1 3 6 7 9 10 12 15`: “mean fluorescence intensity” 108 a.u.
`2'F-ANA at 1 5 7 9 10 13 14`: “mean fluorescence intensity” 46.8 a.u.
Under “mean fluorescence intensity”, `2'F-ANA at 1 2 4 7 8 11 12 15` is recorded as 245 a.u.
`2'F-ANA at 2 3 5 6 8 9 12 14`: “mean fluorescence intensity” 52.6 a.u.
Under “mean fluorescence intensity”, `2'F-ANA at 2 3 4 6 7 8 9 14` is recorded as 238 a.u.
For `2'F-ANA at 2 6 7 9 13 14`, “mean fluorescence intensity” read 114 a.u.
`2'F-ANA at 1 2 3 5 6 8 13 14 15`: “mean fluorescence intensity” 74 a.u.
For `2'F-ANA at 2 3 4 8 10 12 14`, “mean fluorescence intensity” read 199 a.u.
For `2'F-ANA at 2 4 5 6 8 9 11 13 14`, “mean fluorescence intensity” read 48 a.u.
`2'F-ANA at 4 5 6 8 15` — result for “mean fluorescence intensity”: 68.4 a.u.
Under “mean fluorescence intensity”, `2'F-ANA at 1 3 4 6 7 9 10 11 13 15` is recorded as 60.2 a.u.
Under “mean fluorescence intensity”, `2'F-ANA at 2 3 5 9 10 11 13 14` is recorded as 82.4 a.u.
Under “mean fluorescence intensity”, `2'F-ANA at 1 8 9 10 13 14` is recorded as 49.2 a.u.
For `2'F-ANA at 2 7 8 11 13 14 15`, “mean fluorescence intensity” read 133 a.u.

Sample 4 — method: RNA Bind-n-Seq; form: RNA; medium: in vitro; concentration: 200 nM; setting: whole 134-nt RNA, ends assumed; with: 150 mM LiCl; relative to: input library; direction: higher = stronger binding; library: 7-deaza-guanosine replaces G
Target: Fragile X messenger ribonucleoprotein 1, C-terminal low-complexity region (Fmr1, Mus musculus, UniProt P35922)
The log2 enrichment of `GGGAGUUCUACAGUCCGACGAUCUGGCCCUGGUGGCAUGCGGGGAGGAAGAGGUGGCCUCAUGGAUCGUGGUGGUCCCGGUGGAAUGUUCAGAGGUGGCCGUGGGGGAGACAGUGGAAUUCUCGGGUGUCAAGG` is reported as -0.303.
`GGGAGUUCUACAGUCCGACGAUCCUCAAGUCCUGUGCUACACAUCGUAUGUACCGAAUCGGUUUGGAAAGGAAAGGAAAGUAUUAUGUUACGCCGUUCGGAUCUGCACUUCCAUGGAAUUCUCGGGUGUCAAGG` has a log2 enrichment of 0.206.
The log2 enrichment of `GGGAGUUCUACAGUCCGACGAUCUUGUCUACAGAACUAGACAGUACGGAUGGUGCCAAAGUUUUUAGUAAACAACCAGGAAGAAUCCAAAGAGUAGCAAGAGGAUCGGGUGUAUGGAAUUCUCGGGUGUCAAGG` is reported as -2.46.
With `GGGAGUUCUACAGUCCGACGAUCGUGCUACACAUCGUAUGUACCGAAUCGGGGUUUUUUUGGGGUUUUUUUGGGGUUUUUUUGGGGAAAGUAUUAUGUUACGCCGUUCGGAUCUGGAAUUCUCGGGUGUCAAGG` the log2 enrichment was 2.11.
For `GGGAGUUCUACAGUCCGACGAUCCAAGUCCUGUGCUACACAUCGUAUGUACCGAAUCGGGCCGGGGCCGGGGCCGGGGAAAGUAUUAUGUUACGCCGUUCGGAUCUGCACUUCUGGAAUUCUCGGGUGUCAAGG`, the log2 enrichment was -0.0111.
With `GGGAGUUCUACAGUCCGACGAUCUCCUGUGCUACACAUCGUAUGUACCGAAUCGGUUUUUUGGGUUUUUUGGGGUUUUUUGGGAAAGUAUUAUGUUACGCCGUUCGGAUCUGCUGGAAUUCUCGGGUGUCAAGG` the log2 enrichment was -0.136.
With `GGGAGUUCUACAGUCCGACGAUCUGGGAGGUGGAUUUUGUUUAUUUUUUUAGCUCAUUUCCAGGAGUGGGAAUUUUUUUUUAAUAUGUGUCAUGAAUAAAGUUGUUUUUGAAAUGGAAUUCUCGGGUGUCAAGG` the log2 enrichment was -0.118.
With `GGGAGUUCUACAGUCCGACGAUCAUUAAGGUCACCGUUGCAGGCCUGGCUGGAAAAGACCCAGUACAGUGUAGCCGUGAUGUGGUCAUUUGUCCUGAUGCCAGCCUUGAAGAUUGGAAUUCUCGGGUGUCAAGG` the log2 enrichment was -2.5.
With `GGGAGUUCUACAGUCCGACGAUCAAGUCCUGUGCUACACAUCGUAUGUACCGAAUCGGCCCCCGGCCCCCGGGCCCCCGGAAAGUAUUAUGUUACGCCGUUCGGAUCUGCACUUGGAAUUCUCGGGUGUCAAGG` the log2 enrichment was -0.706.
With `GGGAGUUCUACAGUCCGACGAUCAAGUCCUGUGCUACACAUCGUAUGUACCGAAUCGGGUUUGGGGUUUGGGGUUUGGGGAAAGUAUUAUGUUACGCCGUUCGGAUCUGCACUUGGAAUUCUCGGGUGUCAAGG` the log2 enrichment was -1.51.
For `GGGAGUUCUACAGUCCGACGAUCUGGCCCUGGUGGCAUGCGGGGAGGAAGAGGUGGCCUCAUGGAUCGUGGUGGUCCUGGUGGAAUGUUCAGAGGUGGCCGUGGUGGAGACAGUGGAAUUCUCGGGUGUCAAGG`, the log2 enrichment was -0.263.

Excerpt of the above (sample 1):
The E-score of `ATGGTGTC` is reported as -0.148.
With `CCCATCCA` the E-score was -0.159.
The E-score of `ATCTTAGA` is reported as -0.00387.
With `AGAGAAGA` the E-score was -0.127.
The E-score of `GCAGTGGA` is reported as 0.00539.
The E-score of `ATCCTGTG` is reported as -0.0491.
`AACTAGGC` gave an E-score of -0.0474.
The E-score of `GTCTTCGA` is reported as 0.127.
`AGGTGAGC` gave an E-score of -0.0621.
